# Assay results collected from several papers.
# Each line is one published result; not all experiments were run side by side. “And” joins repeats or separate records; there may be more than shown. ± gives the spread as reported.
# CASP7: Caspase-7 (CASP7, Homo sapiens, UniProt P55210)
# Sequence of UniProt P55210 (whole entry, looked up): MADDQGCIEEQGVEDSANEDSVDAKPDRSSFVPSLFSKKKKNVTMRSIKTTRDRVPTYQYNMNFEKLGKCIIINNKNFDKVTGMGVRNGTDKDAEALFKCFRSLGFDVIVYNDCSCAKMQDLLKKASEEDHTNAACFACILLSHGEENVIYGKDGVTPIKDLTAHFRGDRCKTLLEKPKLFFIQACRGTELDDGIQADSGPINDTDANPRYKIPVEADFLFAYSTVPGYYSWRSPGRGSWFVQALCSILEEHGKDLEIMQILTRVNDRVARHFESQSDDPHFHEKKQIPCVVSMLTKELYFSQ
# T1: G-quadruplex DNA, G-quadruplex (Homo sapiens); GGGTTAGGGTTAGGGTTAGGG
# Sequence of UniProt Q92633 (whole entry, unmodified, looked up): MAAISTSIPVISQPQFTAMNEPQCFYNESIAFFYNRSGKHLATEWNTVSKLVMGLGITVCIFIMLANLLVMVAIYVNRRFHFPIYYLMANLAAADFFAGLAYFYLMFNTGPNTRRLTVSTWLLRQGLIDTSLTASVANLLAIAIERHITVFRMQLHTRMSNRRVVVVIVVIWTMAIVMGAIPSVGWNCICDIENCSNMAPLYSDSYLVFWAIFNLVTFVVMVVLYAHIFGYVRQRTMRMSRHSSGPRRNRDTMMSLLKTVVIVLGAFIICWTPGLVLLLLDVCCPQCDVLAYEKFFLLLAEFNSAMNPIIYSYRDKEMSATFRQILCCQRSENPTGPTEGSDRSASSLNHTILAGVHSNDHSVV
# Sequence of UniProt Q13148 (whole entry, looked up): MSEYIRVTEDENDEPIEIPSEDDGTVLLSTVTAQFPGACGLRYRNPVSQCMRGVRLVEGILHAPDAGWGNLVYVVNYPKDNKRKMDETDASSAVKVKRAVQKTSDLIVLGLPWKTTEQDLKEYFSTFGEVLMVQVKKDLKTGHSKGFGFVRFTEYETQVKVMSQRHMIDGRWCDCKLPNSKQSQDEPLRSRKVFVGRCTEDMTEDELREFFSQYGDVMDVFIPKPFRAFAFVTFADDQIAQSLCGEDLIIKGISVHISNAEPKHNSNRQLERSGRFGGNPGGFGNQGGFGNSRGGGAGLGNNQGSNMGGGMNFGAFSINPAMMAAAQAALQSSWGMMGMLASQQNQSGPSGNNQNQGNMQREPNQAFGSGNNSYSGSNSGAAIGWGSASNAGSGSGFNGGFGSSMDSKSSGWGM
# Sequence of UniProt P19491 (whole entry, looked up): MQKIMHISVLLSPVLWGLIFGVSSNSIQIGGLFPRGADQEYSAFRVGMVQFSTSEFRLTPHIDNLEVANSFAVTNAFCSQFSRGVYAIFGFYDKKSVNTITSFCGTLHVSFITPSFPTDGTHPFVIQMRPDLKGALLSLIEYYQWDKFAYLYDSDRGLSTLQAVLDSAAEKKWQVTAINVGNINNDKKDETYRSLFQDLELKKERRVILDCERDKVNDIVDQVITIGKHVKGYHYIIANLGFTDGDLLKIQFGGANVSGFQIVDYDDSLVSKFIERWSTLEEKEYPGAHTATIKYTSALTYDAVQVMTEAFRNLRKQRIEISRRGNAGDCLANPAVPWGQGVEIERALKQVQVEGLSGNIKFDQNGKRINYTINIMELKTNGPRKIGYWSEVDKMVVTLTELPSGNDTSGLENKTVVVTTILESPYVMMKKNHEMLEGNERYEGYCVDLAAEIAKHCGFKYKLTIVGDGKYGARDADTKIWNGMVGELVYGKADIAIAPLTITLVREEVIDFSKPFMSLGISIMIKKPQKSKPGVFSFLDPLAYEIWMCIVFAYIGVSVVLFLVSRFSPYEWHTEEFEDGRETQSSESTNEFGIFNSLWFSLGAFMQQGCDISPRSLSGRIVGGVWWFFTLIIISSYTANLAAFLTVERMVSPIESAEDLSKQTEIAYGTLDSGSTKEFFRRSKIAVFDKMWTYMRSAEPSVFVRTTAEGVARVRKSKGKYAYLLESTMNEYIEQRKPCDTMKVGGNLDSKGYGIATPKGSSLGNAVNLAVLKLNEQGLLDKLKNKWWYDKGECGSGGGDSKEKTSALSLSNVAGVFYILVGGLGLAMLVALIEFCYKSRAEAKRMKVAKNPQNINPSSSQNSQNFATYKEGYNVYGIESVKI
# Sequence of UniProt P21397 (whole entry, looked up): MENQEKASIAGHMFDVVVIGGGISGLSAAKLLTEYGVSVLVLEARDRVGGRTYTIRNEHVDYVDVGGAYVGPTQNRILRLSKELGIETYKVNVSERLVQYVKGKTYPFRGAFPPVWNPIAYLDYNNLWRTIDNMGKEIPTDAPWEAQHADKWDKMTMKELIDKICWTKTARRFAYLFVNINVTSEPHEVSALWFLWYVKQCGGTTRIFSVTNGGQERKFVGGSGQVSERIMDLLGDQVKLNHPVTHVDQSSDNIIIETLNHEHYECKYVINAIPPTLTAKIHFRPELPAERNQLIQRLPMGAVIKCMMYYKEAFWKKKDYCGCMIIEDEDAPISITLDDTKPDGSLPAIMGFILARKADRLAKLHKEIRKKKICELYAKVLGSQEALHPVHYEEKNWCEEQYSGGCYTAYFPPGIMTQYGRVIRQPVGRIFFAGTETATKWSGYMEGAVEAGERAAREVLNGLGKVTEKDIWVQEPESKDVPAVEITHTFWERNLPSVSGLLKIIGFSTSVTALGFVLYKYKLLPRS
# Sequence of UniProt Q9BRS2 (whole entry, looked up): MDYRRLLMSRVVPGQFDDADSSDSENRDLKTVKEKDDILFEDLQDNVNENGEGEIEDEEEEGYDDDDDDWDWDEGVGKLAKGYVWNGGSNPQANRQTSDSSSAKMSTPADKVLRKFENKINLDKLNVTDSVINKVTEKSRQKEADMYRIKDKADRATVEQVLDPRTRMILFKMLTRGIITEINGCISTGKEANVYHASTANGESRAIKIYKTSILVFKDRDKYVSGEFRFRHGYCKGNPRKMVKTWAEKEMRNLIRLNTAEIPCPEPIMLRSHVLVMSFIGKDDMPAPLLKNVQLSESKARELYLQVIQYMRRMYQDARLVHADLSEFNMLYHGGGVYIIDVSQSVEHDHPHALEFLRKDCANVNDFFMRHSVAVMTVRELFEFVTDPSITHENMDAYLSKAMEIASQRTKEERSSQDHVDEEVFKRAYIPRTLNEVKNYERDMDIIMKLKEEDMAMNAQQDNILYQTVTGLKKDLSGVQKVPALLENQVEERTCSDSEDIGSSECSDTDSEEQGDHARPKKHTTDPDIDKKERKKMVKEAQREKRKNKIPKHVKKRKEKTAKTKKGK
# Sequence of UniProt P06748 (whole entry, looked up): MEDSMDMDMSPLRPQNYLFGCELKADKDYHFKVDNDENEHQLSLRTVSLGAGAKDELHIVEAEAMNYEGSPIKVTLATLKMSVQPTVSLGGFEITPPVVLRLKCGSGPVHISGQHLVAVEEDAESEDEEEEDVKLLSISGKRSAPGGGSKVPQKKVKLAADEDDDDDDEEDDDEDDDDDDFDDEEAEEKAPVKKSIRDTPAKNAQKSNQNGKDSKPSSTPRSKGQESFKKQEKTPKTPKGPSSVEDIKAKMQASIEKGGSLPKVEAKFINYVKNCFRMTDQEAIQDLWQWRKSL
# Sequence of UniProt P28843 (whole entry, looked up): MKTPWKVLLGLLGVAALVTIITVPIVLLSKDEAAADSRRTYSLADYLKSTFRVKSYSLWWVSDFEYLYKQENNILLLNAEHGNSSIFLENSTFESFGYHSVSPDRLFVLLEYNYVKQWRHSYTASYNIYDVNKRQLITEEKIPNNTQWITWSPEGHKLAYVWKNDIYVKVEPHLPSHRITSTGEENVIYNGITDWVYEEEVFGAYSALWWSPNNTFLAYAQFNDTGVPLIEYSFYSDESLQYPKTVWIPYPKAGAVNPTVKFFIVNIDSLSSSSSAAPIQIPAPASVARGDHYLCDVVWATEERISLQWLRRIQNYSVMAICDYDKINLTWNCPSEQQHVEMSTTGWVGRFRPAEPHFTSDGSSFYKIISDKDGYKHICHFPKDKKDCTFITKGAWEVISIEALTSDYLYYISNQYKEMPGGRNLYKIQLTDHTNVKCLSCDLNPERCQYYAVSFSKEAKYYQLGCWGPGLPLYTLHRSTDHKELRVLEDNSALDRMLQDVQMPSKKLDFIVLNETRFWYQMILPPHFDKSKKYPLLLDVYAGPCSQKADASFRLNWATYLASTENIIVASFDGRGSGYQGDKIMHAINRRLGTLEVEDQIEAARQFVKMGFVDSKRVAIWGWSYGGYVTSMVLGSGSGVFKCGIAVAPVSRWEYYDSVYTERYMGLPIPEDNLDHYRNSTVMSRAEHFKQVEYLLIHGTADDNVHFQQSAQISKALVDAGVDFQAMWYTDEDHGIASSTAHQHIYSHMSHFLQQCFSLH
# Sequence of UniProt P34972 (whole entry, looked up): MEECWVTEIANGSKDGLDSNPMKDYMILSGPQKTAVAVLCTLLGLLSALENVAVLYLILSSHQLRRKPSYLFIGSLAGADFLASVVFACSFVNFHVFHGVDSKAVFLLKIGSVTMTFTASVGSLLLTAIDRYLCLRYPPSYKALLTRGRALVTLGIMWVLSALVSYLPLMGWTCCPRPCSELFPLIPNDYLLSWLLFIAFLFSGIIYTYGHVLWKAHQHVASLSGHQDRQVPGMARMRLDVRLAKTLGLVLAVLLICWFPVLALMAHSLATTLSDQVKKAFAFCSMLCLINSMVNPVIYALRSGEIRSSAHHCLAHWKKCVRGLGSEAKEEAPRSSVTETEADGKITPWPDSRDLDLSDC
# Sequence of UniProt Q9NQR4 (whole entry, looked up): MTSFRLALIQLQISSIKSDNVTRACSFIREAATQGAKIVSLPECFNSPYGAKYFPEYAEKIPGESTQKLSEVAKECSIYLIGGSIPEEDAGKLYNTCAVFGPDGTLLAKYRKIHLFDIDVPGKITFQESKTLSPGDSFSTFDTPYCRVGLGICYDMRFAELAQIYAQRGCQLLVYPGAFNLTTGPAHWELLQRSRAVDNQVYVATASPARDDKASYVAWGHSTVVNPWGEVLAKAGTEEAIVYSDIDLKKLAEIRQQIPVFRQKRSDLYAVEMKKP
Structure (SMILES),target,test,test system,conditions,how to read,measurement,value
CCCCCCCCN(Cc1ccc(CNC(=O)OCCOC23CC4CC(C2)CC(C(N)C(=O)N2C(C#N)CC5CC52)(C4)C3)cc1)CC(O)C(O)C(O)C(O)CO (centres unmarked),"Dipeptidyl peptidase 4 (Dpp4, Mus musculus, UniProt P28843)","enzyme activity, inhibitor","mouse, BALF","intratracheal, 0.5 mg/kg once",,duration of target coverage,4 days
CC(=O)Nc1ccc(-c2ccnc(NCC3CCC3)n2)cc1,human kinase panel,"binding, KINOMEscan",,"10000 nM, %Ctrl below 10",,number of kinases hit,3
N=C(N)NCCC[C@H](NC(=O)[C@@H]1CCCN1C(=O)[C@H](CCCNC(=N)N)NC(=O)[C@@H]1CCCN1C(=O)[C@H](CCCNC(=N)N)NC(=O)[C@@H]1CCCN1C(=O)[C@H](CCCNC(=N)N)NC(=O)[C@@H]1CCCN1C(=O)[C@H](CCCNC(=N)N)NC(=O)[C@@H]1CCCN1C(=O)[C@H](CCCNC(=N)N)NC(=O)[C@@H]1CCCN1C(=O)[C@H](CCCNC(=N)N)NC(=O)[C@@H]1CCCN1C(=O)[C@H](CCCNC(=N)N)NC(=O)[C@@H]1CCCN1C(=O)[C@H](CCCNC(=N)N)NC(=O)[C@@H]1CCCN1C(=O)[C@H](CCCNC(=N)N)NC(=O)[C@@H]1CCCN1C(=O)[C@H](CCCNC(=N)N)NC(=O)[C@@H]1CCCN1C(=O)[C@H](CCCNC(=N)N)NC(=O)[C@@H]1CCCN1C(=O)[C@H](CCCNC(=N)N)NC(=O)[C@@H]1CCCN1C(=O)[C@H](CCCNC(=N)N)NC(=O)[C@@H]1CCCN1C(=O)[C@H](CCCNC(=N)N)NC(=O)[C@@H]1CCCN1C(=O)[C@H](CCCNC(=N)N)NC(=O)[C@@H]1CCCN1C(=O)[C@H](CCCNC(=N)N)NC(=O)[C@@H]1CCCN1C(=O)[C@H](CCCNC(=N)N)NC(=O)[C@@H]1CCCN1C(=O)[C@H](CCCNC(=N)N)NC(=O)[C@@H]1CCCN1C(=O)[C@H](CCCNC(=N)N)NC(=O)[C@@H]1CCCN1C(=O)[C@H](CCCNC(=N)N)NC(=O)[C@@H]1CCCN1C(=O)[C@H](CCCNC(=N)N)NC(=O)[C@@H]1CCCN1C(=O)[C@H](CCCNC(=N)N)NC(=O)[C@@H]1CCCN1C(=O)[C@H](Cc1ccc(O)cc1)NC(=O)[C@H](CO)NC(=O)CN)C(=O)O,"Nucleophosmin (NPM1, Homo sapiens, UniProt P06748)",SANS,,"0.7 molar excess over NPM1, 25 °C",,maximum particle dimension,171 Å
CC(C)c1ccc(/C=C/C(=O)c2ccc(Br)s2)cc1,"Amine oxidase [flavin-containing] A (MAOA, Homo sapiens, UniProt P21397)","enzyme activity, inhibitor",,10 µM,,activity vs control,7.34%
CC(=O)N[C@@H](CC(=O)O)C(=O)N[C@@H](CO)C(=O)N[C@H](C(=O)N[C@@H](CC(=O)O)C(=O)COC(=O)c1c(C)cccc1C)C(C)C,CASP7,"enzyme activity, inhibitor",,,,kinact/KI,517000 M⁻¹ s⁻¹
O=C1c2sc(-c3ccc(N4CCC(CO)CC4)nc3F)nc2CCN1c1cccnc1,"TAR DNA-binding protein 43, aggregated (TARDBP, Homo sapiens, UniProt Q13148)",radioligand binding,control brain sarkosyl-insoluble extract,2.52 nM,,specific binding,-4 pM
N#CN1CC[C@H](C(=O)Nc2nc3c(s2)CN(C(=O)Cn2cc(COCCOCCOCCOCCNC(=O)CCCC[C@@H]4SC[C@@H]5NC(=O)N[C@@H]54)nn2)CC3)C1,"Omega-amidase NIT2 (NIT2, Homo sapiens, UniProt Q9NQR4)","probe binding, affinity probe, neutravidin pull-down LC-MS/MS","HEK293T, cell lysate","5 µM, 1 h, mean of three replicates, unit not given",higher = more pulled down,iBAQ abundance,3.06e+08
COC(=O)Cc1cc2c(cc1C(=O)c1cccc(Br)c1)OCO2,"Glutamate receptor 2 (Gria2, Rattus norvegicus, UniProt P19491)","glutamate-evoked current, whole-cell patch clamp",HEK-293T,"concentration not given, glutamate alone after washout, added: glutamate",,current amplitude after recovery,1310 ± 67 pA
C#CCCCC(=O)NCC1CN(CCCCCNC(=O)CN(CCN)C(=O)Cn2cnc3c(=O)[nH]c(N)nc32)CCN(CCCCCNC(=O)CN(CCN)C(=O)Cn2cnc3c(=O)[nH]c(N)nc32)CCN(CCCCCNC(=O)CN(CCN)C(=O)Cn2cnc3c(=O)[nH]c(N)nc32)CCN1CCCCCNC(=O)CN(CCN)C(=O)Cn1cnc2c(=O)[nH]c(N)nc21 (centres unmarked),"T1, G-quadruplex DNA, G-quadruplex (Homo sapiens)",FRET melting,,,,change in melting temperature,11.8 °C
CCN(CC)C(CO)c1cccc2c(C)c(C)oc12 (centres unmarked),"Lysophosphatidic acid receptor 1 (LPAR1, Homo sapiens, UniProt Q92633, W271A)","G-protein dissociation, agonist, NanoBiT",HEK-293T,"10 nM, W271A mutant",baseline: baseline luminescence,fold change,1.02 and 0.88 and 1.06 and 0.997 and 0.942 and 0.994
Cc1cc(NC(=O)[C@H](O)c2cc(F)cc(F)c2)ccc1-c1cnc(N)c(C(=O)NC(C)C)c1,"Serine/threonine-protein kinase RIO1 (RIOK1, Homo sapiens, UniProt Q9BRS2)","binding, competition with immobilised ligand",,0.1 µM,,remaining binding,94%
CC[C@H](C)[C@H](NC(=O)[C@H](CCC(=O)O)NC(=O)[C@H](Cc1ccc(I)cc1)NC(C)=O)C(=O)N[C@@H](CC(=O)O)C(=O)COC(=O)c1c(C)cccc1C,CASP7,"enzyme activity, inhibitor",,,,kinact/KI,64300 M⁻¹ s⁻¹
N#Cc1cc(NC(=O)c2cc(-c3ccccc3)n(-c3ccccc3)n2)ccc1N1CCOCC1,"Genome polyprotein, NS2B-NS3 protease (dengue virus type 2, UniProt P29990)",reporter gene,HeLa,12.5 µM,,inhibition,58%
CCOC(=O)C(CC)(CCCSCCCCCCNc1ccc([N+](=O)[O-])c2nonc12)NC(=O)c1ccc(C2CC2)c(Cc2ccc(F)cc2)n1 (centres unmarked),"Cannabinoid receptor 2 (CNR2, Homo sapiens, UniProt P34972)",radioligand binding,,,baseline: CB1 over CB2 (human),Ki ratio,19
